# Literature values as cited in several papers.
# Amino acid sequences for entries named in this document (tags omitted). Residues count along the entry.
# UniProt P21554, whole entry: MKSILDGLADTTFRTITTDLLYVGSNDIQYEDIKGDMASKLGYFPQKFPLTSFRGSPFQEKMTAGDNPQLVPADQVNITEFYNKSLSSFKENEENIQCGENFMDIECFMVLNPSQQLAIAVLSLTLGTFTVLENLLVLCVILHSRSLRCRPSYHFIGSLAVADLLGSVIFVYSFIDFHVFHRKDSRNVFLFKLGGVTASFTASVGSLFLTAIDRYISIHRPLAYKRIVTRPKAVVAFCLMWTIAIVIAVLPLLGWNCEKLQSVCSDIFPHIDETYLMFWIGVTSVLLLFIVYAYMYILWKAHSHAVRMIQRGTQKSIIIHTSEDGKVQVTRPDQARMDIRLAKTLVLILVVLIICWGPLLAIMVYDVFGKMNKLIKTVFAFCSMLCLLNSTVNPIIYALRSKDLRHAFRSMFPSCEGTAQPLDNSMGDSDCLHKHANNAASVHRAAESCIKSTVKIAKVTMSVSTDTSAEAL
# UniProt P38398, whole entry, looked up: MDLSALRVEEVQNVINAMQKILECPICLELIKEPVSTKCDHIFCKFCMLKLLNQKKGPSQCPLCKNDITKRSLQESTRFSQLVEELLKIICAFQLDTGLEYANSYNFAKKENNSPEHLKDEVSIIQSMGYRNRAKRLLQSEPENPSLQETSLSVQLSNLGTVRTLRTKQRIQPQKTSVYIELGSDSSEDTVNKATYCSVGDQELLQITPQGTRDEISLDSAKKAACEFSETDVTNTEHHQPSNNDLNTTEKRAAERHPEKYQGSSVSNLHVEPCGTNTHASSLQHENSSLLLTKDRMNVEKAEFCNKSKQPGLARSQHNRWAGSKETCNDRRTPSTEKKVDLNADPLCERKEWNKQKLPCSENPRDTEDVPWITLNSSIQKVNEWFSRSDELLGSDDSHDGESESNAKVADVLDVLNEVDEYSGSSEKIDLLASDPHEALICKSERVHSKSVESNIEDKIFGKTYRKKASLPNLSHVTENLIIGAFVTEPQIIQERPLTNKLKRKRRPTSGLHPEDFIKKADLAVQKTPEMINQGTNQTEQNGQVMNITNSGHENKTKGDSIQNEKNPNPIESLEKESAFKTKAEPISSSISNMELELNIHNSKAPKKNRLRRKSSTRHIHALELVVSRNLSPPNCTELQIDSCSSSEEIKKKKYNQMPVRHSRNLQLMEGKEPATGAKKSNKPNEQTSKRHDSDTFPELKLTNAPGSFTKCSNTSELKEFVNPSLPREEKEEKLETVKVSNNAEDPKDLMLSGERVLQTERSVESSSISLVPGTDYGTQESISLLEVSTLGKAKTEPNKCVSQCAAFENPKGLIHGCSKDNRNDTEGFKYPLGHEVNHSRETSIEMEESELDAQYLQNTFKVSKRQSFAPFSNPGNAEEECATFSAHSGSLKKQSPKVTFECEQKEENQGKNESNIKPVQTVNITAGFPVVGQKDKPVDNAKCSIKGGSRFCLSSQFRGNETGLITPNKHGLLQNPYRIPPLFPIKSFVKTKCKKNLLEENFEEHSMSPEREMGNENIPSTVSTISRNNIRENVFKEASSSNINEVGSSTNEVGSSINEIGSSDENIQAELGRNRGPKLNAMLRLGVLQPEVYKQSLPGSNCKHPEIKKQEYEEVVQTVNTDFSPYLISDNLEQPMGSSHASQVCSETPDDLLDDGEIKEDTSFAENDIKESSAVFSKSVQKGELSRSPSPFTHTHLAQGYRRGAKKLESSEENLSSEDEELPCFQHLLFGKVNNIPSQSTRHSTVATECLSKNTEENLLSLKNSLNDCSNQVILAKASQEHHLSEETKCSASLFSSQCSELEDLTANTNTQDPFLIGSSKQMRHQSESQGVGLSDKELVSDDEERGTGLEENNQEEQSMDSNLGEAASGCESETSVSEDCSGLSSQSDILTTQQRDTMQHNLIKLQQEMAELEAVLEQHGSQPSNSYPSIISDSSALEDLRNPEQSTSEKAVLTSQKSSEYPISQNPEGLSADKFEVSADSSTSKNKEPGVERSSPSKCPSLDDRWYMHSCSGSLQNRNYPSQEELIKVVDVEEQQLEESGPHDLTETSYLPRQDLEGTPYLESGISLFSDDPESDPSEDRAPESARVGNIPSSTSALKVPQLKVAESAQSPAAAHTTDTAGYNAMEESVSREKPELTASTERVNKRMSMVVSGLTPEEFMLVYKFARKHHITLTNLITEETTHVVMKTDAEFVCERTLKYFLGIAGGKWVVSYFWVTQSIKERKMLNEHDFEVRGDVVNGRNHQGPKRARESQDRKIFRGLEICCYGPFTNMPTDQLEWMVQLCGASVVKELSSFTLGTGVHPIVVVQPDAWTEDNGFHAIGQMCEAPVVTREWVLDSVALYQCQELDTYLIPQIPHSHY
# UniProt P51531, 1378-1506 limits assumed: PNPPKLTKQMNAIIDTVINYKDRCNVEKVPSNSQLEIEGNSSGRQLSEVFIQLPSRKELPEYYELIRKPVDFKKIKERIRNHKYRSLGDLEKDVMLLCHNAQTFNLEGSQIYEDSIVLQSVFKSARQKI
# UniProt P22756, 31-920 isoform 4 limits assumed: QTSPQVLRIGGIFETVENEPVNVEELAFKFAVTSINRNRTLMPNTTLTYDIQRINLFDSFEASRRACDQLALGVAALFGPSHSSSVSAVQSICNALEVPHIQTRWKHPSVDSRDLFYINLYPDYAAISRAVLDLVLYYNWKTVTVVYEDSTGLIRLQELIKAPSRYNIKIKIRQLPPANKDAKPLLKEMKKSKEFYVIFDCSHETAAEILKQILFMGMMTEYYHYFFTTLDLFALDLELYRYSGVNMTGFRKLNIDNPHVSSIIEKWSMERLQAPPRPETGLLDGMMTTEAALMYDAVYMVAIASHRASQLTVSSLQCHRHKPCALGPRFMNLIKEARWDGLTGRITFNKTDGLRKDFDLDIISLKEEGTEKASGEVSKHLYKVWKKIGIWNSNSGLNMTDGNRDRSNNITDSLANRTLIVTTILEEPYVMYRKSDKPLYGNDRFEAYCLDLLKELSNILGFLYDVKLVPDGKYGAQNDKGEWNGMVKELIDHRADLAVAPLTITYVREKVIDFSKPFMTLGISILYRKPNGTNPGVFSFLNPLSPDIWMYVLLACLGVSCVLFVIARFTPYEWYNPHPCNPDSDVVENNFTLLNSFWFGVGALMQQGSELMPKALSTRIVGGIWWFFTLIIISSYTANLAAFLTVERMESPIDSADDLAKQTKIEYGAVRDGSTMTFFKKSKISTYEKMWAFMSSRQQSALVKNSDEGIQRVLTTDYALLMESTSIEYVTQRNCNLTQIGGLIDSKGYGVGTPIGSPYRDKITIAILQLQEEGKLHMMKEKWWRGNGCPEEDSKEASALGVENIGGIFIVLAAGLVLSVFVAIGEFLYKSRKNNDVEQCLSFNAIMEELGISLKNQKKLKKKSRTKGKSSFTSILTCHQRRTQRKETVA
# UniProt P30542, whole entry: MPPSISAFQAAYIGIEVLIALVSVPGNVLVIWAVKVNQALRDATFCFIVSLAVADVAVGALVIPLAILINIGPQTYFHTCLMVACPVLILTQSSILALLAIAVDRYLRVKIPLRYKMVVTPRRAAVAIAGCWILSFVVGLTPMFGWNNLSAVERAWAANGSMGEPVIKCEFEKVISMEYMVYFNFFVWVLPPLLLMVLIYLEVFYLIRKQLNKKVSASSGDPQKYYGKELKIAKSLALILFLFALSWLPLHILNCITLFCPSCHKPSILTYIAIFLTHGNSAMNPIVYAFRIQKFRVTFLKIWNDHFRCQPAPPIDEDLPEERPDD
# UniProt Q9Y618, whole entry, looked up: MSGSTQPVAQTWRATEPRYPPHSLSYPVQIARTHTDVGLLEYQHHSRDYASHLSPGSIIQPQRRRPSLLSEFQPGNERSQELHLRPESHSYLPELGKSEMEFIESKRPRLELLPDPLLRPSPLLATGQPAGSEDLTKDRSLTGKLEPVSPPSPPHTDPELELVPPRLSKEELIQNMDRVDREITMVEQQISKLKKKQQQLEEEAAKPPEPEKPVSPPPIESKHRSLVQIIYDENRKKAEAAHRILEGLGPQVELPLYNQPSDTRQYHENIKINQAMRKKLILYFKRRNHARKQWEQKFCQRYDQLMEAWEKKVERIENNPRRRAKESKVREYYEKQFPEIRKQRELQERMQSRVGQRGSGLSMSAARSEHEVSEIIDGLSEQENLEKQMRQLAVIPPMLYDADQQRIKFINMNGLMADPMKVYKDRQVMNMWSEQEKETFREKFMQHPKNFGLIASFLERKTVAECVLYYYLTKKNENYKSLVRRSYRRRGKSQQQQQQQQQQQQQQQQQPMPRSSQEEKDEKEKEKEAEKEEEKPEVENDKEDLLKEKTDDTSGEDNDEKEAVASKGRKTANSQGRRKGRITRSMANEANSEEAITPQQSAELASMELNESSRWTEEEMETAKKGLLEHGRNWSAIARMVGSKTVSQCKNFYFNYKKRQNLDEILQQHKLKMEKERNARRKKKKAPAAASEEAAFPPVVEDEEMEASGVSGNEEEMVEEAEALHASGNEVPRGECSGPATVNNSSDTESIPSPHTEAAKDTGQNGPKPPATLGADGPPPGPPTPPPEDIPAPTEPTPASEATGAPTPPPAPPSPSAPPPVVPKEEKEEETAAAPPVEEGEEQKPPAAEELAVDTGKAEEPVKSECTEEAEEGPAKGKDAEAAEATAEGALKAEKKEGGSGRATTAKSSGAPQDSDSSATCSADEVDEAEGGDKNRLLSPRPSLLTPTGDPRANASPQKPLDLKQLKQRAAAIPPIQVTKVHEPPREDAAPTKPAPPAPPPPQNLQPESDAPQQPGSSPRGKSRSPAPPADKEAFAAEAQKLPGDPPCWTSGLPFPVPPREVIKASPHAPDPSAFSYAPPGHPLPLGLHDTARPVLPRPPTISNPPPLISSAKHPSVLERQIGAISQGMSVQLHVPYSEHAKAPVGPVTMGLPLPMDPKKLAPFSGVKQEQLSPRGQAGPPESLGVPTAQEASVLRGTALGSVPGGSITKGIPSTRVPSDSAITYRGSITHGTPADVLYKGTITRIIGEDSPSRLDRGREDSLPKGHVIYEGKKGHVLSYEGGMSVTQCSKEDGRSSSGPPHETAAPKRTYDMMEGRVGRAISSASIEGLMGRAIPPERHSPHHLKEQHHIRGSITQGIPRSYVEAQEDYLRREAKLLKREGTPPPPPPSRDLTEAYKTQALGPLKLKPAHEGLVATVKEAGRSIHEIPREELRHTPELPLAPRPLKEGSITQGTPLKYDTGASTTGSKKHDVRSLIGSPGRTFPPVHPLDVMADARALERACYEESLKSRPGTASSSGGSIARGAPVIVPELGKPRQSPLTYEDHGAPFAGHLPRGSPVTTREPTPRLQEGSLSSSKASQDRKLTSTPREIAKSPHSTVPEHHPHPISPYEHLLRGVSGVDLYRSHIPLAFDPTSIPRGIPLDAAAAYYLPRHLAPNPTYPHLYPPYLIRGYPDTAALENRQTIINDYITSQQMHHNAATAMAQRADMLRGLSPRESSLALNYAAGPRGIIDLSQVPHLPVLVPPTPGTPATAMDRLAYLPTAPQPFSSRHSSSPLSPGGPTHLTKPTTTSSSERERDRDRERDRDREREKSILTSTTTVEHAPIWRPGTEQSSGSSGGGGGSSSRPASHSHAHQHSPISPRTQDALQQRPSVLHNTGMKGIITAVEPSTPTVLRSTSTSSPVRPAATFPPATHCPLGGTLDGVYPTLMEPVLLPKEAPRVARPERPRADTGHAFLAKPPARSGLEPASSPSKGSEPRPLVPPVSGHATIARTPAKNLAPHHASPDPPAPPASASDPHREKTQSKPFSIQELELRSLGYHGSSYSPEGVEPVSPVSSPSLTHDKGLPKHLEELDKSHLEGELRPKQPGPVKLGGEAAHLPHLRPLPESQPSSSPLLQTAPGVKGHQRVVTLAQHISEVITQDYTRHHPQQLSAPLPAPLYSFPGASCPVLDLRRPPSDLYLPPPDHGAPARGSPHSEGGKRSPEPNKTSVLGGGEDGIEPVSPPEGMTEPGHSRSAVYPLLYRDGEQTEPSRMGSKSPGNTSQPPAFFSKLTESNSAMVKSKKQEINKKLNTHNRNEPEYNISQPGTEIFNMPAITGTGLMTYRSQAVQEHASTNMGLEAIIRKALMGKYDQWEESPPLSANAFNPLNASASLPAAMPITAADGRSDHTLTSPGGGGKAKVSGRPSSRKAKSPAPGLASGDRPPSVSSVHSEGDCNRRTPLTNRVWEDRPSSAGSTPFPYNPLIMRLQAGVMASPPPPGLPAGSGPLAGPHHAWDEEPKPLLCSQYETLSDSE
# Protocols differ between the studies behind these lines. ± marks the error that the study gave.
# CNR1: Cannabinoid receptor 1 (CNR1, Homo sapiens, UniProt P21554)
Compound,target or system,test,test system,conditions,how to read,quantity,result
CCC(C)NC(=O)CSc1nnc(Nc2ccc(C(C)C)cc2)s1 (stereo not shown),HS27,cytotoxicity,,,,IC50,> 100 µM
CC(=O)N[C@@H](CO)C(=O)N[C@@H](CCCNC(=N)N)C(=O)N[C@@H](CO)C(=O)N[C@H](C(=O)N[C@@H](COP(=O)(O)O)C(=O)N1CCC[C@H]1C(=O)N[C@H](C(=O)N[C@@H](Cc1ccccc1)C(=O)N[C@@H](CC(N)=O)C(=O)N[C@@H](CCCCN)C(N)=O)[C@@H](C)O)[C@@H](C)O,"Breast cancer type 1 susceptibility protein, BRCT domain (BRCA1, Homo sapiens, UniProt P38398)","binding, ITC",,,,−TΔS,3.7 ± 0.9 kcal/mol
O=S(=O)(NC1CCN(c2ncnc3c2nc(-c2ccccc2Cl)n3-c2ccc(Cl)cc2)CC1)c1ccccc1,CNR1,antagonist,,,,Ke,0.3 nM
CC(=O)N[C@@H](CC(C)C)C(=O)NCC(=O)N[C@@H](CCCCNC(=O)C(F)(F)F)C(=O)Nc1ccc2c(C)cc(=O)oc2c1,"HDAC4 (Homo sapiens, UniProt P56524)",substrate,,,,Km,10.3 µM
N=C(N)NCCC[C@H](NC(=O)c1ccccc1-c1ccccc1)C(=O)N[C@@H](Cc1ccccc1)C(N)=O,"NPFFR1 (Homo sapiens, UniProt Q9GZQ6)",antagonist,,,reference: Ki NPFF2-R over NPFF1-R,selectivity ratio,1840 fold
Cc1cc(C)cc(Nc2nccc(-c3c(-c4ccc(F)cc4)ncn3C3CCNCC3)n2)c1,"SMARCA2 (Homo sapiens, UniProt P51531)",,,concentration not given,,inhibition,> 35%
CN(C)c1ccc(CC(=O)Nc2n[nH]c3ccc(N4CCCS4(=O)=O)cc23)cc1,CDK4/6,"kinase activity, inhibitor",,,,IC50,0.0022 µM
CCCCC(=O)NC1CCN(c2ncnc3c2nc(-c2ccccc2Cl)n3-c2ccc(Cl)cc2)CC1,CNR1,binding,,,reference: Ki CB2 over Ki CB1,selectivity ratio,53
CCC[C@@H]1CN[C@H](C(=O)O)[C@H]1c1cccc(C(=O)O)c1,"Glutamate receptor ionotropic, kainate 1 (Rattus norvegicus, UniProt P22756)",,,,reference: GluK3 Ki over GluK1 Ki,selectivity ratio,4 fold
O=C(CC1CCCCC1)NC1CCN(c2ncnc3c2nc(-c2ccccc2Cl)n3-c2ccc(Cl)cc2)CC1,CNR1,antagonist,,,,Ke,2 nM
COc1ccc(Nc2nc(N)[n+]([O-])c(OCC3CCCCC3)n2)cc1,CDK4/6,"kinase activity, inhibitor",,,,IC50,33 µM
CC(=O)NCCCC[C@H](NC(=O)CNC(=O)[C@H](CC(C)C)NC(C)=O)C(=O)Nc1ccc2c(C)cc(=O)oc2c1,"HDAC1 (Homo sapiens, UniProt Q13547)",substrate,,,,Km,5.4 µM
CC(C)Nc1nc(Cl)nc2c1ncn2[C@H]1[C@H](O)[C@H](O)[C@@H]2C[C@@H]21,"ADORA1 (Homo sapiens, UniProt P30542)","cAMP production inhibition, agonist","CHO cells, receptor-transfected","10 µM, with: forskolin",reference: reference full agonist,Emax,50.5 ± 6.4%
CS(=O)(=O)NC1CCN(c2ncnc3c2nc(-c2ccccc2Cl)n3-c2ccc(Cl)cc2)CC1,CNR1,binding,,,reference: Ki CB2 over Ki CB1,selectivity ratio,37
CC(=O)NCCCC[C@H](NC(=O)CNC(=O)[C@H](CC(C)C)NC(C)=O)C(=O)Nc1ccc2c(C)cc(=O)oc2c1,"Histone deacetylase 3/Nuclear receptor corepressor 2 (HDAC3/NCoR2) (Homo sapiens, UniProt O15379+Q9Y618)",substrate,,,,Km,6 µM
O=C(O)C1=CCCN(CCON=C(c2ccccc2)c2ccccc2)C1,"Slc6a1 (Rattus norvegicus, UniProt P23978)",,,,,Hill coefficient,1.1

# Excerpt of the above:
Compound,target or system,test,test system,conditions,how to read,quantity,result
O=S(=O)(NC1CCN(c2ncnc3c2nc(-c2ccccc2Cl)n3-c2ccc(Cl)cc2)CC1)c1ccccc1,CNR1,antagonist,,,,Ke,0.3 nM
COc1ccc(Nc2nc(N)[n+]([O-])c(OCC3CCCCC3)n2)cc1,CDK4/6,"kinase activity, inhibitor",,,,IC50,33 µM
